Measurements from different studies.
Lines come from different studies, so protocols differ. ± marks the error that the study gave.

| SMILES | target or system | test system | setting | how to read | endpoint | value |
| --- | --- | --- | --- | --- | --- | --- |
| CC[C@H](C)[C@@H]1NC(=O)[C@@H](NC(=O)[C@H](CO)NC(=O)[C@@H](N)CCCNC(=N)N)CSSC[C@@H](C(=O)O)NC(=O)[C@H]([C@@H](C)O)NC(=O)CNC(=O)[C@@H]2CSSC[C@@H]3NC(=O)[C@H](CCC(N)=O)NC(=O)[C@H](Cc4ccccc4)NC(=O)[C@H](C)NC(=O)[C@H]([C@@H](C)O)NC(=O)[C@H](CSSC[C@H](NC(=O)[C@H](Cc4ccccc4)NC(=O)[C@H](CO)NC(=O)[C@H](CC(C)C)NC(=O)[C@H](CCCNC(=N)N)NC(=O)[C@H](Cc4ccc(O)cc4)NC(=O)[C@H](CCCCN)NC(=O)[C@H](CCSC)NC(=O)[C@H](CO)NC(=O)[C@H](Cc4cnc[nH]4)NC(=O)[C@H](CCCCN)NC3=O)C(=O)N[C@@H](CCCNC(=N)N)C(=O)N[C@@H](CCCCN)C(=O)N[C@@H]([C@@H](C)O)C(=O)N2)NC(=O)[C@H](CCCNC(=N)N)NC(=O)[C@H](CO)NC(=O)[C@H](CCCCN)NC(=O)[C@@H]2CCCN2C(=O)[C@H]([C@@H](C)CC)NC(=O)[C@H]([C@@H](C)O)NC(=O)[C@H](CC(=O)O)NC1=O |  | porcine simulated intestinal fluid |  |  | time to complete degradation | 6 h |
| CCCCCCCCCCCCCCCC(=O)N[C@@H](CCC(=O)NCCCC[C@H](NC(=O)[C@H](CC(=O)O)NC(=O)[C@H](CO)NC(=O)[C@@H](NC(=O)[C@H](Cc1ccccc1)NC(=O)[C@@H](NC(=O)CNC(=O)[C@H](CCC(N)=O)NC(=O)[C@H](C)NC(=O)[C@@H](Cc1ccc(O)cc1)NC(C)=O)[C@@H](C)O)[C@@H](C)O)C(=O)N[C@@H](CO)C(=O)N[C@@H](CCCCN)C(=O)N[C@@H](Cc1ccc(O)cc1)C(=O)N[C@@H](CC(C)C)C(=O)N[C@@H](CC(=O)O)C(=O)N[C@@H](CCC(=O)O)C(=O)N[C@@H](CCCNC(=N)N)C(=O)N[C@@H](C)C(=O)N[C@@H](C)C(=O)N[C@@H](CCC(N)=O)C(=O)N[C@@H](CC(=O)O)C(=O)N[C@@H](Cc1ccccc1)C(=O)N[C@H](C(=O)N[C@@H](CCC(N)=O)C(=O)N[C@@H](Cc1c[nH]c2ccccc12)C(=O)N[C@@H](CC(C)C)C(=O)N[C@@H](CC(C)C)C(=O)N[C@@H](CCC(=O)O)C(=O)NCC(=O)NCC(=O)N1CCC[C@H]1C(=O)N[C@@H](CO)C(=O)N[C@@H](CO)C(=O)NCC(=O)N[C@@H](C)C(=O)N1CCC[C@H]1C(=O)N1CCC[C@H]1C(=O)N1CCC[C@H]1C(=O)N[C@@H](CO)C(N)=O)C(C)C)C(=O)O |  | Wistar rat, male, plasma | intravenous, 0.02 mg/kg |  | dose-normalised Cmax | 15600 ng/mL per mg/kg |
| O=c1cc(-c2ccccc2)oc2c(Br)c(O)c(O)c(O)c12 | chikungunya virus | C57BL/6 mouse, CHIKV-infected, plasma | oral, 250 mg/kg twice daily, 12 h after dose 5 |  | trough concentration | 2190 ± 1440 ng/mL |
| CC[C@H](C)[C@H](NC(=O)[C@H](CC(C)C)NC(=O)[C@H](Cc1c[nH]c2ccccc12)NC(=O)[C@H](CCC(N)=O)NC(=O)[C@@H](NC(=O)[C@H](Cc1ccccc1)NC(=O)[C@H](C)NC(=O)[C@H](CCCCNC(=O)COCCOCCNC(=O)COCCOCCNC(=O)CC[C@H](NC(=O)CCCCCCCCCCCCCCCCCCC(=O)O)C(=O)O)NC(=O)[C@H](CCC(N)=O)NC(=O)[C@H](C)NC(=O)[C@@H](NC(=O)[C@H](CCCCN)NC(=O)[C@H](CC(=O)O)NC(=O)[C@H](CC(C)C)NC(=O)C(C)(C)NC(=O)[C@@H](NC(=O)[C@H](CO)NC(=O)[C@H](Cc1ccc(O)cc1)NC(=O)[C@H](CC(=O)O)NC(=O)[C@H](CO)NC(=O)[C@@H](NC(=O)[C@H](Cc1ccccc1)NC(=O)[C@@H](NC(=O)CNC(=O)[C@H](CCC(=O)O)NC(=O)C(C)(C)NC(=O)[C@@H](N)Cc1ccc(O)cc1)[C@@H](C)O)[C@@H](C)O)[C@@H](C)CC)[C@@H](C)CC)C(C)C)C(=O)N[C@@H](C)C(=O)NCC(=O)NCC(=O)N1CCC[C@H]1C(=O)N[C@@H](CO)C(=O)N[C@@H](CO)C(=O)NCC(=O)N[C@@H](C)C(=O)N1CCC[C@H]1C(=O)N1CCC[C@H]1C(=O)N1CCC[C@H]1C(=O)N[C@@H](CO)C(N)=O |  | DIO male Wistar rats, serum | dose not given, 10 weeks, fasted |  | ALT | 23 ± 2 U/L |
| CC[C@H](C)[C@H](NC(=O)[C@H](CCCN)NC(=O)[C@H](CC(=O)O)NC(=O)[C@H](CC(C)C)NC(=O)C(C)(CC(C)C)NC(=O)[C@@H](NC(=O)[C@H](CO)NC(=O)[C@H](Cc1ccc(O)cc1)NC(=O)[C@H](CC(=O)O)NC(=O)[C@H](CO)NC(=O)[C@@H](NC(=O)[C@H](Cc1ccccc1)NC(=O)[C@@H](NC(=O)CNC(=O)[C@H](CCC(=O)O)NC(=O)C(C)(C)NC(=O)[C@@H](N)Cc1ccc(O)cc1)[C@@H](C)O)[C@@H](C)CC)[C@@H](C)CC)C(=O)N[C@@H](Cc1c[nH]cn1)C(=O)N[C@@H](CCC(N)=O)C(=O)NC(C)(C)C(=O)N[C@@H](CC(=O)O)C(=O)N[C@@H](Cc1ccccc1)C(=O)N[C@H](C(=O)N[C@@H](CCC(=O)O)C(=O)N[C@@H](Cc1ccc(O)cc1)C(=O)N[C@@H](CCCCNC(=O)COCCOCCNC(=O)COCCOCCNC(=O)CC[C@H](NC(=O)CCCCCCCCCCCCCCCCCCC(=O)O)C(=O)O)C(=O)N[C@@H](CC(C)C)C(=O)N[C@@H](CCC(=O)O)C(=O)NCC(=O)NCC(=O)N1CCC[C@H]1C(=O)N[C@@H](CO)C(=O)N[C@@H](CO)C(=O)NCC(=O)N[C@@H](C)C(=O)N1CCC[C@H]1C(=O)N1CCC[C@H]1C(=O)N1CCC[C@H]1C(=O)N[C@@H](CO)C(N)=O)C(C)C (some centres unmarked) |  | human, type 2 diabetes | subcutaneous, 25 mg single dose, geometric mean |  | Cmax | 2910 ng/mL |
| CCCCCCCCCCCCCCCC(=O)N[C@@H](CCC(=O)NCCOCCOCCC(=O)NCCOCCOCCC(=O)NCCCC[C@H](NC(=O)[C@H](CC(=O)O)NC(=O)[C@H](CC(C)C)NC(=O)[C@H](Cc1ccc(O)cc1)NC(=O)[C@H](CCCCN)NC(=O)[C@H](CO)NC(=O)[C@H](Cc1ccc(O)cc1)NC(=O)[C@H](CC(=O)O)NC(=O)[C@H](CO)NC(=O)[C@@H](NC(=O)[C@H](Cc1ccccc1)NC(=O)[C@@H](NC(=O)CNC(=O)[C@H](CCC(N)=O)NC(=O)[C@@H](CO)NC(=O)[C@@H](N)Cc1c[nH]cn1)[C@@H](C)O)[C@@H](C)O)C(=O)N[C@@H](CCCNC(=N)N)C(=O)N[C@@H](CCCNC(=N)N)C(=O)N[C@@H](C)C(=O)N[C@@H](CCC(N)=O)C(=O)N[C@@H](CC(=O)O)C(=O)N[C@@H](Cc1ccccc1)C(=O)N[C@H](C(=O)N[C@@H](CCC(N)=O)C(=O)N[C@@H](Cc1c[nH]c2ccccc12)C(=O)N[C@@H](CC(C)C)C(=O)N[C@@H](CC(C)C)C(=O)N[C@@H](CC(N)=O)C(=O)N[C@H](C(=O)NCC(=O)NCC(=O)N1CCC[C@H]1C(=O)N[C@@H](CO)C(=O)N[C@@H](CO)C(=O)NCC(=O)N[C@@H](C)C(=O)N1CCC[C@H]1C(=O)N1CCC[C@H]1C(=O)N1CCC[C@H]1C(=O)N[C@@H](CO)C(N)=O)[C@@H](C)O)C(C)C)C(=O)O |  | rhesus monkey, female | subcutaneous, 300 µg/kg once daily, 28 days |  | total bilirubin | 4.7 ± 1.7 µmol/L |
| C[C@H](Nc1ncnc(N)c1C#N)c1c(-c2ccccc2)[nH]c2c(Cl)cccc2c1=O |  | Sprague-Dawley rats | dose not given |  | lethal dose | 200 mg/kg |
| Cc1oc2nc1C(=O)N[C@](C)(C(=O)NCCc1ccc(N3CCCCC3)cc1)c1nc(c(C)o1)C(=O)N[C@](C)(C(=O)NCCc1ccc(N3CCCCC3)cc1)c1nc(c(C)o1)C(=O)N[C@]2(C)C(=O)NCCc1ccc(N2CCCCC2)cc1 | SARS-CoV-2 | Vero E6, NRC-03-nhCoV |  | baseline: CC50 over IC50 | selectivity index | 10.9 |

A few entries again:
| SMILES | target or system | test system | setting | how to read | endpoint | value |
| --- | --- | --- | --- | --- | --- | --- |
| CC[C@H](C)[C@H](NC(=O)[C@H](CC(C)C)NC(=O)[C@H](Cc1c[nH]c2ccccc12)NC(=O)[C@H](CCC(N)=O)NC(=O)[C@@H](NC(=O)[C@H](Cc1ccccc1)NC(=O)[C@H](C)NC(=O)[C@H](CCCCNC(=O)COCCOCCNC(=O)COCCOCCNC(=O)CC[C@H](NC(=O)CCCCCCCCCCCCCCCCCCC(=O)O)C(=O)O)NC(=O)[C@H](CCC(N)=O)NC(=O)[C@H](C)NC(=O)[C@@H](NC(=O)[C@H](CCCCN)NC(=O)[C@H](CC(=O)O)NC(=O)[C@H](CC(C)C)NC(=O)C(C)(C)NC(=O)[C@@H](NC(=O)[C@H](CO)NC(=O)[C@H](Cc1ccc(O)cc1)NC(=O)[C@H](CC(=O)O)NC(=O)[C@H](CO)NC(=O)[C@@H](NC(=O)[C@H](Cc1ccccc1)NC(=O)[C@@H](NC(=O)CNC(=O)[C@H](CCC(=O)O)NC(=O)C(C)(C)NC(=O)[C@@H](N)Cc1ccc(O)cc1)[C@@H](C)O)[C@@H](C)O)[C@@H](C)CC)[C@@H](C)CC)C(C)C)C(=O)N[C@@H](C)C(=O)NCC(=O)NCC(=O)N1CCC[C@H]1C(=O)N[C@@H](CO)C(=O)N[C@@H](CO)C(=O)NCC(=O)N[C@@H](C)C(=O)N1CCC[C@H]1C(=O)N1CCC[C@H]1C(=O)N1CCC[C@H]1C(=O)N[C@@H](CO)C(N)=O |  | DIO male Wistar rats, serum | dose not given, 10 weeks, fasted |  | ALT | 23 ± 2 U/L |
